# Assay results gathered from unrelated publications.
Structure (SMILES),test system,conditions,quantity,value
CCCOc1cc(O)c2c(=O)c(OC)c(C[C@@H](C)O)c3c4c(C[C@@H](C)O)c(OC)c(=O)c5c(O)cc(OCCC)c(c1c23)c54,,at 670 nm,molar absorption coefficient,360 M⁻¹ cm⁻¹
NCCC(=O)N1Cc2ccccc2-c2c(nnn2-c2cn(C3OC(CO)C(O)C3O)c(=O)[nH]c2=O)-c2ccccc21 (mixture of isomers),,,molar absorption coefficient,7300 M⁻¹ cm⁻¹
Cc1c(C)c(C)[c-](C)c1C.[C-]#[O+].[C-]#[O+].[C-]#[O+].[Cl-].[Cl-].[Cl-].[Ir+3].[Re+].c1cnc(-c2ncccn2)nc1,10% aqueous DMSO,,molar conductivity,195 S m²/mol
CCn1cc(/C=C/c2ccc3ccccc3[n+]2CC)c2ccccc21,PBS,,molar absorptivity,22400 M⁻¹ cm⁻¹
Nc1ncnc2c1nc(-n1nnc3c1CCC1C(CO)C1CC3)n2C1CC(O)C(CO)O1 (mixture of isomers),,,molar absorption coefficient,18200 M⁻¹ cm⁻¹
[C-]#[O+].[C-]#[O+].[C-]#[O+].[C-]#[O+].[C-]#[O+].[C-]#[O+].[Cl-].[Cl-].[Re+].[Re+].c1cnc(-c2ncccn2)nc1,10% aqueous DMSO,,molar conductivity,140 S m²/mol
O=c1[nH]c(=O)n(C2OC(CO)C(O)C2O)cc1-n1nnc2c1CCC1C(CO)C1CC2 (mixture of isomers),,,molar absorption coefficient,10100 M⁻¹ cm⁻¹
CC1(C)C(/C=C/C2=C(Cl)C(=C/C=C3/N(CCCCCC(=O)O)c4ccccc4C3(C)C)/C[N+](C)(C)C2)=[N+](CCCCCC(=O)O)c2ccccc21,10 mM PBS,pH 7.4,molar absorption coefficient,192000 M⁻¹ cm⁻¹
CCCCCCCCCCCCCCCC(=O)OCC(COP(=O)([O-])OCC[N+](C)(C)Cc1cn(-c2cc3ccc(OC(=O)Oc4ccc(CCC(=O)C(F)(F)F)cc4)cc3oc2=O)nn1)OC(=O)CCCCCCCCCCCCCCC (stereo not drawn),,,molar extinction coefficient,2780 M⁻¹ cm⁻¹
CCCc1c(OC)c(=O)c2c(O)c(C(=O)OC)c(OC)c3c4c(OC)c(C(=O)OC)c(O)c5c(=O)c(OC)c(CCC)c(c1c23)c54,,at 670 nm,molar absorption coefficient,1430 M⁻¹ cm⁻¹
CN(C)c1cccc2c(S(=O)(=O)NCCNC(=O)CCCC[C@@H]3SC[C@@H]4NC(=O)N[C@@H]43)cccc12,PBS,"0.5% DMSO, at absorbance maximum",molar extinction coefficient,3500 M⁻¹ cm⁻¹
COc1c(C[C@@H](C)O)c2c3c(C[C@@H](C)O)c(OC)c(=O)c4c(O)cc(OC)c(c5c(OC)cc(O)c(c1=O)c52)c43,,at 670 nm,molar absorption coefficient,225 M⁻¹ cm⁻¹
Cc1ccc(C(C)C)cc1.[Cl-].[Cl][Ru+].[Ru+].c1ccc(-c2cn(CCCCOc3ccccc3-c3nc4ccccc4s3)nn2)nc1,DMSO,,molar conductance,8 S cm²/mol
COc1c(C[C@@H](C)O)c2c3c(C[C@@H](C)O)c(OC)c(=O)c4c(O)cc(OC(C)C)c(c5c(OC(C)C)cc(O)c(c1=O)c52)c43,,at 670 nm,molar absorption coefficient,150 M⁻¹ cm⁻¹
CCn1cc(/C=C/c2sc3ccccc3[n+]2CC)c2ccccc21,DMSO,,molar absorptivity,49700 M⁻¹ cm⁻¹

# For quick reference, copied from above:
Structure (SMILES),test system,conditions,quantity,value
NCCC(=O)N1Cc2ccccc2-c2c(nnn2-c2cn(C3OC(CO)C(O)C3O)c(=O)[nH]c2=O)-c2ccccc21 (mixture of isomers),,,molar absorption coefficient,7300 M⁻¹ cm⁻¹
CCn1cc(/C=C/c2ccc3ccccc3[n+]2CC)c2ccccc21,PBS,,molar absorptivity,22400 M⁻¹ cm⁻¹
